Measured values pooled from the literature.
Numbered parts are unrelated; each lists some results of a single study. Changes are numbered by the printed parent chain.

Sample 1 — method: protein-binding microarray; form: double-stranded DNA, one strand shown; matrix: in vitro; concentration: 250 nM; notes: 60-bp whole probe; with: salmon DNA 0.4 mg/ml; baseline: random background probes; direction: higher = stronger binding; all sequences stand within: GCCTAGCAC … GTCTTGATTCGCTTGACGCTGCTG
Target: Interferon regulatory factor 7, full length, phosphomimetic (IRF7, Homo sapiens, UniProt Q92985, residues 1-503, S101K/S471D/S472D/S475D/S476D/S477D/S483D/S484D/S487D)
Construct (chain): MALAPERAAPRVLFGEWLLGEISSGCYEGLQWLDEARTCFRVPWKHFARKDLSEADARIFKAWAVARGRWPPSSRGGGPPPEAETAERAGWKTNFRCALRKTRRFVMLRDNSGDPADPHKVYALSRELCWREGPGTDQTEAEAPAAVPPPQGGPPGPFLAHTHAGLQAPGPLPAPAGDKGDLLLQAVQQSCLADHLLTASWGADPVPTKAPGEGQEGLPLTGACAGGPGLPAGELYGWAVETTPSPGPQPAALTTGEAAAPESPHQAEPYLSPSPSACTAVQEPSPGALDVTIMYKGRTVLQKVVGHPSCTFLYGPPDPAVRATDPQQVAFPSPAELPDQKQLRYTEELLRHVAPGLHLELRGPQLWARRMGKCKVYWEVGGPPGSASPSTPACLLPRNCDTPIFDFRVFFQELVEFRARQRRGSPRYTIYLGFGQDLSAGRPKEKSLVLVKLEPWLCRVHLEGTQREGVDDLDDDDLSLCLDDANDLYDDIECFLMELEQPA
Oligonucleotide | log fluorescence
TTAGGTTTCCTGCTCCTTTAGTGCTAG | 0.885 z-score
TTAGGTATCGGACTGGATTAGTGCTAG | 0.358 z-score
TTAGATATCAGTATCCATTAGTGCTAG | 0.0893 z-score
TCAGGTTAAAATTTTGCACTGTGCTAG | -0.188 z-score
GGGTTCAAGAAGTAGGAGAAGTGCTAG | 1.07 z-score
CACGGTATCGACTTTCGGGACGTGCTA | 1.38 z-score
TTAGGTATCGGGTATCAGTTAGTGCTA | 0.983 z-score
TCAGTGCTCATCTGTCATACTGTGCTA | -0.759 z-score
AGCCTGGCCAAGCTCACAGCGTGCTAG | -1.12 z-score
TTAGAACTGGGGTTTCAATTAGTGCTA | -0.317 z-score
TCAAGTATGTTCCTTATTACTGTGCTA | 0.904 z-score
TACGAACTGAGTTTCGAGACGTGCTAG | 3.69 z-score
GACGGACTGGACTTTCGGCACGTGCTA | -0.841 z-score
TCAGGAGTCATTCTCAAACTGTGCTAG | -0.509 z-score
TTAGGACTGGACATTGGGTTAGTGCTA | -0.582 z-score
GACGGACTGGGTCTCGGCACGTGCTAG | -0.73 z-score
TTAGGACTCGACTATCGGTTAGTGCTA | 0.446 z-score
GACGATATCGGGTATCTAGACGTGCTA | -0.0753 z-score
TCAAGGTTCAAGTTTACCACTGTGCTA | 0.048 z-score
TCAGACTTGATTTTGGTACTGTGCTAG | 0.0929 z-score
TTAGGACTGGACTTCCGGTTAGTGCTA | -0.542 z-score
AGGTTGATGGCTCTCTGGACGTGCTAG | -0.888 z-score
TCAACTCTCTGGGCTGTGACTGTGCTA | -0.492 z-score
GTGTTACTAAAATTTCATGAAGTGCTA | 1.51 z-score
TCAAGCTTTTCATTTTTTACTGTGCTA | 0.145 z-score

Sample 2 — target: CCNB2, cyclin fold, Cln2 fusion (human); method: yeast growth competition, sequencing; matrix: yeast; notes: strong parent motif; baseline: not given; direction: higher = stronger binding
Starting sequence: E2F1 docking peptide (human); PPVKRRLDFETDH; partner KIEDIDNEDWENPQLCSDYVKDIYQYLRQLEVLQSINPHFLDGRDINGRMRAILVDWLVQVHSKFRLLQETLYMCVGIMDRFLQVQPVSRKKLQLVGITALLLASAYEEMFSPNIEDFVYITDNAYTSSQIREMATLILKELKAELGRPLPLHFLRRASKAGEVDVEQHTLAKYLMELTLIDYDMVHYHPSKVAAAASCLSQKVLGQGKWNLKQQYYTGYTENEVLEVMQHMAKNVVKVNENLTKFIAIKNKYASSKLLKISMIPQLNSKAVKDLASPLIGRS
Change | normalised enrichment score
R6C | 2.59
T11S | 4.34
L7Q | 0.489
T11Y | 3.92
T11I | 3.31
D8I | 2.86
K4M | 2.43
T11P | 3.48
P2C | 3.44
D12K | 2.35
R5C | 2.19
R6G | 0.375
E10H | 2.65
E10P | 1.64
T11G | 3.65
P2S | 3.47
D12H | 3.25
D12M | 3.51
V3G | -0.132
V3M | 1.74
T11L | 3.63
D8H | 2.48
V3H | 0.399
F9E | 0.61
E10K | 1.73

Sample 3 — target: FOSL1, bZIP domain (human); method: DHFR protein complementation; matrix: yeast; baseline: wild-type JUN-FOS pair; direction: higher = stronger binding
Notes: single substitutions, most at no-binding floor
Starting sequence: JUN, bZIP domain (human); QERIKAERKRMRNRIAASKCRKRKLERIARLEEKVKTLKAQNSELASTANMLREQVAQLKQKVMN; partner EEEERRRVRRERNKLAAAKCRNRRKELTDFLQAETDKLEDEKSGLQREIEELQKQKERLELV
Change | binding fitness
L45M | -0.727 natural log
L45R | -1.38 natural log
E32A | 0.0706 natural log
A40S | -0.488 natural log
Q41W | -1.47 natural log
T48D | -0.946 natural log
V35R | -0.573 natural log
A40I | -0.598 natural log
S47A | -0.219 natural log
S43L | -0.409 natural log
E33T | -0.673 natural log
K34G | -0.485 natural log
E54I | -0.599 natural log
L38T | -1.18 natural log
M51N | -0.514 natural log
L52W | -1.48 natural log
T48P | -1.37 natural log
T37C | -0.484 natural log
L45E | -1.45 natural log
K34V | -0.716 natural log
E44K | -0.391 natural log
E32I | -0.735 natural log
A29Q | -0.498 natural log
S47N | -0.347 natural log

Sample 4 — method: RNA Bind-n-Seq; form: RNA; matrix: in vitro; concentration: 1 µM; notes: whole 134-nt RNA, ends assumed; with: 150 mM KCl; baseline: input library; direction: higher = stronger binding
Target: Ras GTPase-activating protein-binding protein 1, C-terminal RGG region (G3BP1, Homo sapiens, UniProt Q13283)
UniProt Q13283, sequence (whole entry, looked up): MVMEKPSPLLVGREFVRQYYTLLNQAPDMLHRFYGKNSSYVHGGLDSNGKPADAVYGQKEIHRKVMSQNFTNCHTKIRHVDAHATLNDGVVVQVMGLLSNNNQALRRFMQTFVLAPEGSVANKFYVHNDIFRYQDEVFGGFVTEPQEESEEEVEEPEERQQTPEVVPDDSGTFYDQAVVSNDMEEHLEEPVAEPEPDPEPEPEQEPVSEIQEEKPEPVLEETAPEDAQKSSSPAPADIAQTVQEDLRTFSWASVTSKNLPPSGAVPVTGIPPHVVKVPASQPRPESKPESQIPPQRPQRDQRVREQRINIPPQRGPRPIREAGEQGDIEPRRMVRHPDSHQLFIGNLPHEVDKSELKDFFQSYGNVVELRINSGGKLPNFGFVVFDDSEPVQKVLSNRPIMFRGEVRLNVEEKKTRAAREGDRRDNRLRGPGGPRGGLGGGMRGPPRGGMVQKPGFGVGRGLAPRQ
All sequences stand within: GGGAGUUCUACAGUCCGACGAUC … UGGAAUUCUCGGGUGUCAAGG
Oligonucleotide | log2 enrichment
CUCAGACAACACGCACCCACACAGACACAGAGGGAAGGGGUUGGGAUGGGGACAGGGUGCACAGCAGGGCGGGGUAGGACCCCAGCCCCU | -0.237
UCAAGUCCUGUGCUACACAUCGUAUGUACCGAAUCGGGUUUGGGAGGGUUUGGGAAAGUAUUAUGUUACGCCGUUCGGAUCUGCACUUCC | 2.08
GUCCUGUGCUACACAUCGUAUGUACCGAAUCAAAUUUUUAAACCCCCCCAAAUUUAAAAAAGUAUUAUGUUACGCCGUUCGGAUCUGCAC | -0.192
CCUGUGCUACACAUCGUAUGUACCGAAUCGGGGAGGGGUUUUUUUGGGGAAAAAAAGGGGAAAGUAUUAUGUUACGCCGUUCGGAUCUGC | -0.0652
CCUGUGCUACACAUCGUAUGUACCGAAUCGGGUUUUUGGGUUUUUUUGGGUUUUUUUGGGAAAGUAUUAUGUUACGCCGUUCGGAUCUGC | -1.5
AGUCCUGUGCUACACAUCGUAUGUACCGAAUCAAAUUUAAACCCAAACCCCCCCAAAAAAGUAUUAUGUUACGCCGUUCGGAUCUGCACU | -0.951
AAGUCCUGUGCUACACAUCGUAUGUACCGAAUCGGGGUGGGGAAAGGGGAAAGGGGAAAGUAUUAUGUUACGCCGUUCGGAUCUGCACUU | 3.2
GUCCUGUGCUACACAUCGUAUGUACCGAAUCGGGAGGGAAAAAAAGGGUUUUUUUGGGAAAGUAUUAUGUUACGCCGUUCGGAUCUGCAC | -0.324
UCAAGUCCUGUGCUACACAUCGUAUGUACCGAAUCGGGUUUUUGGGUGGGUGGGAAAGUAUUAUGUUACGCCGUUCGGAUCUGCACUUCC | 0.822
UGGCCCUGGUGGCAUGCGGGGAGGAAGAGGUGGCCUCAUGGAUCGUGGUGGUCCCGGUGGAAUGUUAAGAGGUGGCCGUGGUGGAGACAG | 3.51
UCCUGUGCUACACAUCGUAUGUACCGAAUCGGAAAAAAAGGUUUUUUUGGAAAAAAAGGAAAGUAUUAUGUUACGCCGUUCGGAUCUGCA | -1.58
GUCCUGUGCUACACAUCGUAUGUACCGAAUCGGGAAAAAGGGAAAAAAAGGGUUUGGGAAAGUAUUAUGUUACGCCGUUCGGAUCUGCAC | -0.573
CUGUGCUACACAUCGUAUGUACCGAAUCAAAUUUUUUUAAAUUUUUUUAAAUUUUUUUAAAAAAGUAUUAUGUUACGCCGUUCGGAUCUG | -2.72
AGUGGGUUUGUUGAAGCAGUUGCUGGUGCAACAGCUAGGUUUGACUGAGAAGAGCGUUCAGGAAGACUGGCAACAUUUCCCAAGAUACAG | -1.97

Sample 5 — method: Sort-seq; refers to: YFP reporter; matrix: E. coli; notes: PhoQ-PhoP variant library; with: 10 µM Mg2+; baseline: high Mg2+ state; direction: higher = stronger signaling
Molecule: PhoQ, residues 284 288 289 292 302 303 AGHLVA
target | fold induction
PhoP, residues 12 14 15 18 19 HHYTI (Escherichia coli, UniProt P23836) | 1.75
PhoP, residues 12 14 15 18 19 AYFRS (Escherichia coli, UniProt P23836) | 6.52
PhoP, residues 12 14 15 18 19 SFCSL (Escherichia coli, UniProt P23836) | 14.7

Excerpt of the above (sample 2):
Change | normalised enrichment score
T11I | 3.31
D8I | 2.86
K4M | 2.43
T11P | 3.48
P2C | 3.44
D12K | 2.35
